# Experimental data gathered from unrelated publications.
# Compare with care: the assays were run in different laboratories.
SMILES,assay,test system,setting,measurement,result
Cc1cc(NC2CCN(C(=O)OC3CCN(C(=O)/C=C/CN(C)C)C3)CC2)n2ncc(C(C)C)c2n1 (stereo not drawn),,patients with advanced solid tumours,"dose not given, QD arm, grade 3 or higher",patients with Constipation,0%
COc1ccc([C@@H](O)c2cc(-c3ncnc4cc(N5CCOCC5)ccc34)c(F)cc2Cl)nn1,item: general and administration site disorders,locally advanced rectal cancer patients,"100 mg, added: capecitabine plus radiotherapy",patients with TEAE,83%
CCOc1c([C@H](C)n2nc(C)c3c(N)ncnc32)cc(Cl)c(F)c1[C@@H]1CNC(=O)C1,ECG,previously treated B-cell malignancy patients,"oral, 30 mg once daily, baseline below thresholds",patients with HR above 100 bpm,7.7%
CNC(=O)c1cc(Oc2ccc(NC(=O)Nc3cc(C(C)(C)C)nn3-c3ccc4ncccc4c3)c(F)c2)ccn1,,patients,"oral, dose not given, cycles 1 and 2, High Cmax subgroup",patients with cardiac disorders,17%
C[C@@H](Nc1cc(F)cc(F)c1)c1cc(C(=O)N(C)C)cc2c(=O)cc(N3CCOCC3)oc12,item: Tachycardia,advanced solid tumour patients,"oral, dose not given, dose expansion",patients discontinuing for AE,0%
COc1cc(Nc2ncc3c(n2)-c2ccc(Cl)cc2C(c2c(F)cccc2OC)=NC3)ccc1C(=O)O,,cancer patients,"oral, dose not given, grade 3 any attribution, added: pembrolizumab",patients with decreased ejection fraction,4%
C[C@@H](c1ccc2nccn2c1)n1nnc2ncc(-c3cnn(C)c3)nc21,item: treatment-related grade ≥3 Myalgia,EGFR-mutant MET-altered NSCLC,oral,patients with adverse events,0%
O=C(Nc1nc2cccc(-c3ccc(CN4CCS(=O)(=O)CC4)cc3)n2n1)C1CC1,item: abdominal discomfort,rheumatoid arthritis patients,"oral, 200 mg once daily, 4 weeks, any relatedness",patients with adverse event,0%
C=CC(=O)Nc1cc(Nc2nccc(-c3cn(C)c4ccccc34)n2)c(OC)cc1N(C)CCN(C)C,item: treatment-related grade ≥3 Diarrhea,EGFR-mutant MET-altered NSCLC,"oral, dose not given, all",patients with adverse events,2%
FC(F)(F)c1ccc(CNc2ccc(Cc3c[nH]c4ncc(Cl)cc34)cn2)cn1,item: aspartate aminotransferase increased,patients with TGCT,"oral, 1000 mg/day, grade 3 or higher",patients with treatment-related adverse event,8%
C=CC(=O)NC1CCN(c2ncc3ncnc(Nc4ccc(Oc5ccc6c(c5)ncn6C)c(C)c4)c3n2)CC1,,male patients,"oral, dose not given, on-treatment adverse events",patients with Flatulence,0%
CNC(=O)c1ccc(-c2cnc3ncc(Cc4ccc5ncccc5c4)n3n2)cc1F,"item: Pyrexia, all grades",cancer patients,"oral, 600 mg twice daily, other expansion cohort, any causality",patients with adverse event,11%
CCO[C@H]1CCN(Cc2c(OC)cc(C)c3[nH]ccc23)[C@H](c2ccc(C(=O)O)cc2)C1,item: Dyspepsia,"PNH patients, active haemolysis","oral, 100 mg twice daily, extension phase",patients with adverse event,20%
CC(C)C[C@H](NC(=O)CNC(=O)c1cc(Cl)ccc1Cl)B(O)O,"item: Hyperglycaemia, all grades",newly diagnosed multiple myeloma patients,"oral, dose not given, maintenance phase, new onset, cycle 17 or later",patients with adverse event,17%
Cc1cc(-c2nnc(N)nc2-c2ccc(F)cc2)cc(Cl)n1,item: myositis,post-IO NSCLC patients,"oral, 100 mg once daily, treatment-related, grade 1",patients with immune-mediated AE,0%

# Repeated from above:
SMILES,assay,test system,setting,measurement,result
C[C@@H](c1ccc2nccn2c1)n1nnc2ncc(-c3cnn(C)c3)nc21,item: treatment-related grade ≥3 Myalgia,EGFR-mutant MET-altered NSCLC,oral,patients with adverse events,0%
